Assay results pooled from the literature.
Each numbered part is a random draw from the data of one study; scales do not carry over between parts.

Study 1
Target: RNA binding protein fox-1 homolog 2, RRM domain, GST-SBP tag (RBFOX2, Homo sapiens, UniProt O43251-10, residues 100-194)
Technique: RNA Bind-n-Seq
Molecule type: RNA
Medium: in vitro
Concentration: 365 nM
Setting: natural RNA segment, single round, ends assumed
Relative to: no-protein control
Direction: higher = stronger binding
Target sequence (chain): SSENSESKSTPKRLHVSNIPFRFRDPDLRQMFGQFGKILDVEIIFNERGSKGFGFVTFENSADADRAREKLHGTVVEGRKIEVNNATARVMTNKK
| Strand | RBNS enrichment (R) |
| --- | --- |
| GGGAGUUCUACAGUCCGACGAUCUGUCACUCCCAGACCACCUCCCUGCCCUGUCCUCCAGCUUCCCCUCGCUGUCCUGCUGUGUGAAUUCCCAGGUUGGCCUGGUGGCCAUGUCGCCUGCCCCCAGCACUCCUUGGAAUUCUCGGGUGCCAA | 0.797 |
| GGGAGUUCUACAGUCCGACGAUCCCUUAAGCUGGAGAGAAAUCAGCAGGAGGACGACUGUGAGCGUACUGGAACUGGAGAAGAGGAGGCCCCGCCCCACCGCUCCGGGAGCUGCUCAUCAGCCGCAACUUCCUUGGAAUUCUCGGGUGCCAA | 0.237 |
| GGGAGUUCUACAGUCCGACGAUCAGCAUCUCAGUCAAGCAUCUAAAACAGGGGGCAGUCUGUGUAUACAAGAGCCCACCUCCUGCUGUGUGAUGUCAUCAGGACACCCCCACCCUCACCCCACCACCAGGGUCUGGAAUUCUCGGGUGCCAA | 0.306 |
| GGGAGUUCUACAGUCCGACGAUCAAUGUGUGAAAAAGAUGCCAAUUAUUGUUACACAUCAAGCAAUCAAUAAAGAAAACUUCCGUAGUUAUUUAUUGAGUGCAACUGUCCUGUGCUUUACUGAGCCUGAGCUAUGGAAUUCUCGGGUGCCAA | 0.249 |
| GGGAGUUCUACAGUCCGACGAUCAUCCCUUUGGGUACCAUUUUUAUUGUUUUAUGUAGAAUGUUAGAAAUUACCACUAAUUUACCUGGCAGUGAUGUCAAAUUGACUGUAAUUAGCAGGUAGAAAAUUAUUUGUGGAAUUCUCGGGUGCCAA | 0.38 |
| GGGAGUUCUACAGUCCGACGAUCUCAUUUACUCUCCCAUUAGUAGAACUUGCACUUUGGGCUGUCUGUUCUAGUAUUUGGGAAGUGUUUAUGCUUCCUUCCAGGGACCAUCUUAUGAUCAGAGGCAGGAUGUCUGGAAUUCUCGGGUGCCAA | 0.39 |
| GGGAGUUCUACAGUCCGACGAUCAAUGCCAGGCCAGUAAAAGUAUAACAGCAAAUAACCAUUGGUUAAUCUGGACUUAUUUUUGGACUUAGUGCAACAGGUUGAGGCUAAAACAAAUCUCAGAACAGUCUGAAUGGAAUUCUCGGGUGCCAA | 0.388 |
| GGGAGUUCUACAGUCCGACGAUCAUCUAGCACUUGCAGGCAUUCCAGGUAGAAGAGCUUUGCCCGUGCUCCAGCUAGCCUACACUGAUCCUGCCUAAGCAGGGUCCUGAACGCCGGAGACAGGGUCUGCUGGAUGGAAUUCUCGGGUGCCAA | 0.331 |
| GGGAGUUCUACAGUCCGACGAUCGUGCCAUCCCCACCUUCACCUCGGAGGGAUGGAGAAAGAAGUGGAGACAGUCCUUUCCCACCAUUCCUGCCUUUAAGCCAAAGAAACAAGCUGUGCAGGCAUGGUCCCUUUGGAAUUCUCGGGUGCCAA | 0.28 |
| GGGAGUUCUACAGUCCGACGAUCGCAGGCACUGUGGGGUCCUGAGGGCCAGUGGGUCCAUUUCACCUCUUGCUGCAUGAUGGUCAGUAGCUGAUCUGUUAUGGCAUUCACUUCCAGAUUAAUUUUCCGUGUUUUGGAAUUCUCGGGUGCCAA | 20 |
| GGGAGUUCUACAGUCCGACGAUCCAGUUCUCUCUGAUUUGGUUUGUUCUGUCUCAGGCUUCUGUGGCAGGACUGGCCCAGGGAGGAGGAAGCCAGCAGCACACCUGGGGAAUGGGGUCCCGGCCGGGAGGCUUUGGAAUUCUCGGGUGCCAA | 0.496 |
| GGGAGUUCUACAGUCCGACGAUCUCUCGGGCCCCGUAGGUACCAAGAGACUGUUUACCUCCCAGAAUGUUUGGGCUUGAAGUUACAUUAAAGUGAAGUUAUUUGAAAGAAAGAAAACCUCAUCAUUUCUAAGGUGGAAUUCUCGGGUGCCAA | 0.756 |

Study 2
Target: Histone acetyltransferase KAT6A, both winged helices, GST fusion (KAT6A, Homo sapiens, UniProt Q92794, residues 1-181)
Technique: protein binding microarray
Molecule type: double-stranded DNA, one strand shown
Medium: in vitro
Concentration: not given
Setting: 8-mer, flanks averaged, mean of 2 arrays, mostly near background
Relative to: not given
Direction: higher = stronger binding
Residues (chain): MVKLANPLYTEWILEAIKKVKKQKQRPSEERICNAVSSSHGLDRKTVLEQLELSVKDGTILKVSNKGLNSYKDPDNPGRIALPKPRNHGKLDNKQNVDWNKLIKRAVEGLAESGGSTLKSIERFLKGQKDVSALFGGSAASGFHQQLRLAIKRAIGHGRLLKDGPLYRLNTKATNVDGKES
| Strand | E-score |
| --- | --- |
| GATGGACA | 0.0111 |
| CGCGTTGC | 0.29 |
| GAGACGAC | -0.0446 |
| CACATGTA | 0.0113 |
| CTCCCTTA | -0.264 |
| GTTGCGAA | -0.069 |
| CCGTAGGA | 0.107 |
| ACCGCGAT | 0.297 |
| CGGGCTAA | 0.204 |
| AAATGGTA | -0.148 |
| AATATAAC | -0.0971 |
| GATCAGAC | -0.0617 |
| AGCGGGAT | 0.236 |
| AGCGGAGG | 0.152 |
| AGCTAGGC | -0.104 |
| TGACTGAA | -0.1 |
| GGTGAAAA | 0.00161 |
| CTGGGCTC | -0.252 |
| CATTTCAA | -0.0898 |
| GTGATAAA | 0.127 |
| ACGTAAGC | 0.0134 |
| TACCCAGA | -0.165 |
| TGCTAGAA | -0.0104 |
| CAAAAGAG | -0.125 |
| GTGAGAAC | -0.0219 |

Study 3
Target: PABPC1L2, full length, GST fusion (mouse, UniProt A0ABA7IW68)
Technique: RNAcompete
Molecule type: RNA
Medium: in vitro
Concentration: 20 nM
Setting: 7-mer, probes averaged, single round
Relative to: mean of 7-mers
Direction: higher = stronger binding
Target sequence (chain): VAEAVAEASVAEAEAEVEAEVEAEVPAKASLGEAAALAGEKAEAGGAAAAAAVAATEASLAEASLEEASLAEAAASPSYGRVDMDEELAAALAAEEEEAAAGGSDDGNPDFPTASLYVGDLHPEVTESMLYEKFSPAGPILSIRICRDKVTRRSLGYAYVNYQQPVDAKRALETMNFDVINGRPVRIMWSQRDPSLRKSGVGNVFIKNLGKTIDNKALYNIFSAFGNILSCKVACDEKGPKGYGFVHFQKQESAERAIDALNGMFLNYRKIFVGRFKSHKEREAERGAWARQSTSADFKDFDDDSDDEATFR
| Strand | 7-mer Z-score |
| --- | --- |
| AUUUUGG | -0.162 |
| UCAUAGU | -0.193 |
| CCCACAC | -0.376 |
| GUUCUUC | -0.465 |
| UGAAACC | -0.217 |
| GCAGCUU | -0.104 |
| GUGUCAU | -0.251 |
| CUGCACU | -0.177 |
| UCAACCC | -0.249 |
| AGGACUA | 0.191 |
| AGGUUAA | 0.00617 |
| UAAAGCA | 0.713 |
| UUCGAAU | -0.24 |
| ACUCACC | -0.0718 |
| ACUAUGU | -0.117 |
| GAACAUU | -0.121 |
| CCUGACU | -0.364 |
| CUAAUUU | -0.282 |
| AAGAUAG | 0.408 |
| CCUACUC | -0.322 |
| UUUCGGC | -0.414 |
| CGGGGUU | -0.17 |
| CUUGUCC | -0.34 |
| UUCUUCG | -0.434 |
| GCAUAAU | -0.104 |

Study 4
Target: Sal-like protein 4, full length isoform A (SALL4, Homo sapiens, UniProt Q9UJQ4, residues 1-1053)
UniProt Q9UJQ4, sequence (whole entry, looked up): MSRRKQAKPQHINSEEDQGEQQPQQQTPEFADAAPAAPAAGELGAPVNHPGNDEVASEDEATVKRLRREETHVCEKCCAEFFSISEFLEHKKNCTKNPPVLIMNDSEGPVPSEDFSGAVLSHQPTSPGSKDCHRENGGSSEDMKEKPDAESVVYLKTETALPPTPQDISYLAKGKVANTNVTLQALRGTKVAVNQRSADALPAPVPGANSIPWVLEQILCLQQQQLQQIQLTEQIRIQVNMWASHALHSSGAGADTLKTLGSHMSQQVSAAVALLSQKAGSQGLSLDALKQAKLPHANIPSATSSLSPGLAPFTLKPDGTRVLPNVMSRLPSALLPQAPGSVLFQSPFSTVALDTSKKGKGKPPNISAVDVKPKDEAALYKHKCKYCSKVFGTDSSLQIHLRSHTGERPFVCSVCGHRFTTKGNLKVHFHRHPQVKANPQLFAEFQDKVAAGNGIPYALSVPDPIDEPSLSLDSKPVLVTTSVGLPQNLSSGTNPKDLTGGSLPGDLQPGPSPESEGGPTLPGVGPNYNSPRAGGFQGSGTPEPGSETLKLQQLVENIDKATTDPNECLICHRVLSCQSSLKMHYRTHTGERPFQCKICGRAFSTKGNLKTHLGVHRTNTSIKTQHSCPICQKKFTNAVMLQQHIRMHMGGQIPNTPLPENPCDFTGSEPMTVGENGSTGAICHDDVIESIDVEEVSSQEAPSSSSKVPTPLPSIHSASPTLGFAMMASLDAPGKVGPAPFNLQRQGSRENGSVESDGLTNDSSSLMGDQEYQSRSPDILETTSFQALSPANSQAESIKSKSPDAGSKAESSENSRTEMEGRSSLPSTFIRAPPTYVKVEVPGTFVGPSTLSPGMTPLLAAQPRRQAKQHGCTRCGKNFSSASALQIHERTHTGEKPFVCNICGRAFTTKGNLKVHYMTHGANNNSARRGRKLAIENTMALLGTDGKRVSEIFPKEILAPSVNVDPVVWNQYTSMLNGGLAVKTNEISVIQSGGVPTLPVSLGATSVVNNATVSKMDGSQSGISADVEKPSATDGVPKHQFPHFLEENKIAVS
Technique: universal PBM
Molecule type: double-stranded DNA, one strand shown
Medium: in vitro
Concentration: 600 nM
Setting: 8-mer, flanks averaged, mean of replicates
Direction: higher = stronger binding
| Strand | E-score |
| --- | --- |
| GGGGAGAA | -0.211 |
| GGTGAGTA | -0.0387 |
| CCTAATGA | 0.0843 |
| ACCGAGAG | -0.154 |
| GCGGATTA | -0.0449 |
| CGTTCCTC | -0.151 |
| ATAACAAC | 0.291 |
| GCCGACAC | -0.295 |
| ATCACAGG | -0.0172 |
| CCTCTTAC | -0.154 |
| AAATGGTG | 0.167 |
| GAATGCGC | -0.119 |
| TTCATCAA | 0.248 |
| GAACACAC | -0.131 |
| ACTTCCTC | -0.12 |
| ATTTACAA | 0.335 |
| CTACACGA | 0.0716 |
| AGGACGCA | -0.298 |
| AGAACATC | -0.00147 |

Some of these lines once more (study 4):
| Strand | E-score |
| --- | --- |
| CGTTCCTC | -0.151 |
| ATAACAAC | 0.291 |
| GCCGACAC | -0.295 |
| ATCACAGG | -0.0172 |
| CCTCTTAC | -0.154 |
